{"data": "Assay results pooled from the literature", "note": "± marks the error that the study gave."}
{"Structure (SMILES)": "CC[C@H]1OC(=O)[C@H](C(C)C)NC(=O)[C@H](C)OC(=O)[C@@H](C(C)C)NC(=O)[C@@H](C(C)C)OC(=O)[C@H](C(C)C)NC(=O)[C@H](C)OC(=O)[C@@H](C(C)C)NC(=O)[C@@H](C(C)C)OC(=O)[C@H](C(C)C)NC(=O)[C@H](C)OC(=O)[C@@H](C(C)C)NC1=O", "cell line": "U-87 MG", "test": "annexin V/PI flow cytometry", "conditions": "0.8 µM, 72 h", "how to read": "relative to: untreated control", "measurement": "apoptotic cells increase", "value": "20.4%"}
{"Structure (SMILES)": "CC[C@H](C)[C@H](NC(=O)[C@@H](NC(=O)[C@H](CC(N)=O)NC(=O)[C@H](CCC(N)=O)NC(=O)[C@@H]1CCCN1C(=O)[C@@H](NC(=O)[C@H](Cc1ccc(O)cc1)NC(=O)CNC(=O)[C@H](Cc1ccc(O)cc1)NC(=O)[C@H](Cc1c[nH]c2ccccc12)NC(=O)[C@H](Cc1c[nH]cn1)NC(=O)[C@H](Cc1ccc(O)cc1)NC(=O)CNC(=O)CCOCCOCCOCCNC(=S)Nc1ccc(C2=[N+]3C(=C(c4ccc(OC)cc4)c4cc(Cl)c(-c5ccc(OC)cc5)n4[B-]3(F)F)C=C2Cl)cc1)[C@@H](C)O)C(C)C)C(N)=O", "cell line": "HEp-2", "conditions": "10 µM, 1 h", "how to read": "relative to: unconjugated BODIPY 5", "measurement": "cellular uptake", "value": "60 fold"}
{"Structure (SMILES)": "COc1cc2c(cc1OC)C(=O)C(=Cc1ccc(N3CC[N+](C)(C)CC3)cc1)C2", "cell line": "PC-12", "test": "lipid peroxidation", "conditions": "concentration not given, added: amyloid beta 1-42", "measurement": "MDA level", "value": "decreased"}
{"Structure (SMILES)": "CC[C@H](C)[C@H](NC(=O)[C@@H](NC(=O)[C@@H](NC(=O)[C@@H](N)C(C)C)C(C)C)[C@@H](C)CC)C(N)=O", "cell line": "PC-12", "test": "Aβ42-induced neurotoxicity, inhibitor, MTT", "conditions": "concentration not given, 6 h, 37 °C, peptide to Aβ42 1:2, added: Aβ42 2 µM", "how to read": "relative to: untreated cells", "measurement": "viability", "value": "97%"}
{"Structure (SMILES)": "CC12OOC(C)(OO1)C2CCC(=O)NCCCNc1ccnc2cc(Cl)ccc12 (stereo not shown)", "cell line": "HL-60", "test": "cell growth or viability, resazurin", "conditions": "10 µM, 48 h", "measurement": "inhibition", "value": "67.4%"}
{"Structure (SMILES)": "O=C1/C(=C/c2ccc3c(c2)OCCO3)SC(=S)N1[C@@H]1O[C@H](CO)[C@@H](O)[C@H](O)[C@H]1O", "cell line": "HepG2", "conditions": "IC50, 48 h", "how to read": "relative to: untreated", "measurement": "apoptotic cell death", "value": "65.6 fold"}
{"Structure (SMILES)": "COc1c(C)cc2c(c1OC)OCO2", "cell line": "HCT-116", "test": "cell growth or viability", "conditions": "72 h", "measurement": "GI50", "value": "> 250000 nM"}
{"Structure (SMILES)": "C[C@H]1C(OCCCCCCCC[P+](c2ccccc2)(c2ccccc2)c2ccccc2)O[C@@H]2O[C@@]3(C)CCC4[C@H](C)CCC1[C@]42OO3 (stereo partly shown)", "cell line": "T24", "test": "cell growth", "conditions": "concentration not given", "how to read": "relative to: compound over dihydroartemisinin", "measurement": "activity ratio", "value": 1260}
{"Structure (SMILES)": "NC(=O)CCCCC=C1C(=O)OC1CCc1ccccc1 (stereo not shown)", "cell line": "ABHD16A-/- mouse peritoneal macrophages", "conditions": "1 µM, 4 h, added: basal or LPS", "measurement": "lyso-PS level", "value": "no effect"}
{"Structure (SMILES)": "CC(=O)Oc1ccc(/C=C/C(=O)Nc2nc(=O)n([C@@H]3O[C@H](C)[C@@H](OC(C)=O)[C@H]3OC(C)=O)cc2F)cc1OC(C)=O", "cell line": "ASPC1", "test": "cell viability, MTT", "how to read": "relative to: NHDF fibroblasts over ASPC1", "measurement": "selectivity index", "value": 1.35}
{"Structure (SMILES)": "CC/C=C\\C/C=C\\C/C=C\\C/C=C\\C/C=C\\C/C=C\\CCC(=O)Nc1ccn(C2OC(CO)C(O)C2(F)F)c(=O)n1 (stereo not shown)", "cell line": "COLO 205", "test": "NCI60 screen", "measurement": "CC50", "value": "50700 nM"}
{"Structure (SMILES)": "CCCCNC(P(=O)(O)O)P(=O)(O)O", "cell line": "HeLa and A549", "test": "Amplex Red", "conditions": "concentration not given", "how to read": "up to", "measurement": "cellular cholesterol reduction", "value": "≤ 15%"}
{"Structure (SMILES)": "[N]#[Os]([Cl])([Cl])[Cl].c1cnc2c(c1)ccc1cccnc12", "cell line": "MRC-5 and A2780", "test": "cytotoxicity", "how to read": "relative to: MRC-5 over A2780 IC50", "measurement": "selectivity ratio", "value": "8 fold"}
{"Structure (SMILES)": "C[C@H]1C(OCCCCCCCCCCCC[P+](c2ccccc2)(c2ccccc2)c2ccccc2)O[C@@H]2O[C@@]3(C)CCC4[C@H](C)CCC1[C@]42OO3 (stereo partly shown)", "cell line": "T24", "test": "MTT", "conditions": "72 h", "how to read": "relative to: HUVEC IC50 over T24 IC50", "measurement": "selectivity index", "value": 0.65}
{"Structure (SMILES)": "C[C@H]1[C@H](OC(=O)CCC(=O)OCCc2ccc(O)cc2)O[C@@H]2O[C@@]3(C)CC[C@H]4[C@H](C)CC[C@@H]1[C@@]24OO3", "cell line": "SK-MEL-24", "test": "cell viability, MTT", "conditions": "24 h, without deferoxamine", "measurement": "IC50", "value": "1500 ± 40 nM"}
{"Structure (SMILES)": "COC(=O)[C@H](CC(C)C)NC(=O)[C@@H]1CCCN1C(=O)[C@@H](NC(=O)[C@H](CCC(=O)C=[N+]=[N-])NC(=O)OCc1ccccc1)C(C)C", "cell line": "Huntington disease patient myoblasts", "test": "item: cytochrome c", "conditions": "50 µM, 2 h", "measurement": "mRNA level", "value": "increased"}
{"Structure (SMILES)": "CC(C)[C@@H]1NC(=O)[C@H](C)OC(=O)[C@@H](C(C)C)NC(=O)[C@@H](C(C)C)OC(=O)[C@H](C(C)C)NC(=O)[C@H](C)OC(=O)[C@@H](C(C)C)NC(=O)[C@@H](C(C)C)OC(=O)[C@H](C(C)C)NC(=O)[C@H](C)OC(=O)[C@@H](C(C)C)NC(=O)[C@H](C)OC1=O", "cell line": "U-87 MG", "test": "cell growth, SRB", "how to read": "relative to: IC50 in HA over IC50 in U-87 MG", "measurement": "selectivity ratio", "value": 18}
{"Structure (SMILES)": "CCCCCCCCC=CCCCCCCCC(=O)OC(COC(=O)Cc1c(C)n(C(=O)c2ccc(Cl)cc2)c2ccc(OC)cc12)COP(=O)([O-])OCC[N+](C)(C)C (stereo not shown)", "cell line": "MDA-MB-468", "test": "SRB", "how to read": "relative to: MCF-10A IC50 over MDA-MB-468 IC50", "measurement": "selectivity index", "value": 2.69}
{"Structure (SMILES)": "CC=C(C)C(=O)OC1C(O)C2OC(COC(=O)CCCCCCCCCC(CCCCC)OC3OC(C)C(OC(C)=O)C(O)C3O2)C1OC(=O)C=Cc1ccccc1 (stereo not shown)", "cell line": "U-937", "how to read": "relative to: IC50 MCF-10A over IC50 U-937", "measurement": "selectivity index", "value": 2.77}
{"Structure (SMILES)": "O=C(O)CCC(NP(=O)(O)OCCC[C@@H](NC(=O)CCC(NC(=O)CCCCCNC(=O)c1ccc([18F])cc1)C(=O)O)C(=O)O)C(=O)O (stereo partly shown)", "cell line": "CWR22Rv1", "conditions": "1 h", "measurement": "surface-bound fraction", "value": "18.6 ± 2.7%"}
{"Structure (SMILES)": "CC(=O)N1CCCC[C@H]1C(=O)NC(C)(C)C(=O)N1CCCC[C@H]1C(=O)NC(C)(C)C(=O)NC(C)(C)C(=O)N[C@@H](CC(C)C)C(=O)NCCC(=O)N[C@H](C)C(=O)NC(C)(C)C(=O)NC(C)(C)C(=O)N1CCCC[C@H]1C(=O)NC(C)(C)C(=O)NCC(=O)N[C@@H](CC(C)C)C(=O)NC(C)(C)C(=O)N[C@@H](CC(C)C)C[N+]1=C2CCCN2CCC1", "cell line": "39 cancer cell lines", "conditions": "48 h, mean over panel", "measurement": "GI50", "value": "1200 nM"}
{"Structure (SMILES)": "CC(C)CC(O)(CC(C)C)c1cn(C(=O)N2CCCC2)nn1", "cell line": "mouse T-cells", "test": "SILAC proteomics, item: TPI1", "conditions": "1 nM, 6 h, unit not given", "how to read": "relative to: DMSO", "measurement": "protein level", "value": "1.12 ± 0.1"}
{"note": "Excerpt of the above:"}
{"Structure (SMILES)": "COc1cc2c(cc1OC)C(=O)C(=Cc1ccc(N3CC[N+](C)(C)CC3)cc1)C2", "cell line": "PC-12", "test": "lipid peroxidation", "conditions": "concentration not given, added: amyloid beta 1-42", "measurement": "MDA level", "value": "decreased"}
{"Structure (SMILES)": "CC[C@H](C)[C@H](NC(=O)[C@@H](NC(=O)[C@@H](NC(=O)[C@@H](N)C(C)C)C(C)C)[C@@H](C)CC)C(N)=O", "cell line": "PC-12", "test": "Aβ42-induced neurotoxicity, inhibitor, MTT", "conditions": "concentration not given, 6 h, 37 °C, peptide to Aβ42 1:2, added: Aβ42 2 µM", "how to read": "relative to: untreated cells", "measurement": "viability", "value": "97%"}
{"Structure (SMILES)": "CC12OOC(C)(OO1)C2CCC(=O)NCCCNc1ccnc2cc(Cl)ccc12 (stereo not shown)", "cell line": "HL-60", "test": "cell growth or viability, resazurin", "conditions": "10 µM, 48 h", "measurement": "inhibition", "value": "67.4%"}
